# Results pooled from the literature.
# Each numbered part is a random draw from the data of one study; scales do not carry over between parts.

# Series 1
# Target: Interferon regulatory factor 3, full length, phosphomimetic (IRF3, Homo sapiens, UniProt Q14653, residues 1-427, S386D/S396D/S398D/S402D/T404D/S405D)
# Chain of UniProt Q14653 (whole entry, unmodified, looked up): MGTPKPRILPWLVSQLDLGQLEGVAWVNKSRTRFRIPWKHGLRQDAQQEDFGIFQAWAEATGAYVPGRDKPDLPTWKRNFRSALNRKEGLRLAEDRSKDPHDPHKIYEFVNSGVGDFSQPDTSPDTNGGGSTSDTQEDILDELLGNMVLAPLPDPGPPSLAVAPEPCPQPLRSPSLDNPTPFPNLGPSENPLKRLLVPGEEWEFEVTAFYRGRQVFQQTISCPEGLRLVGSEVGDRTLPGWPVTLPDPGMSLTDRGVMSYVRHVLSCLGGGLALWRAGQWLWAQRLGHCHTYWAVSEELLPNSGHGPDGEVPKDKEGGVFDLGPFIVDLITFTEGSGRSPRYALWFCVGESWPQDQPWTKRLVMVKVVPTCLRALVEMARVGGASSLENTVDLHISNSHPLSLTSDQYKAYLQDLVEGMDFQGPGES
# Method: protein-binding microarray
# Molecule type: double-stranded DNA, one strand shown
# Medium: in vitro
# Tested at: 2540 nM top
# Notes: 60-bp whole probe
# Together with: salmon DNA 0.4 mg/ml
# Baseline: random background probes
# Reading: higher = stronger binding
# All sequences stand within: GCCTAGCAC … GTCTTGATTCGCTTGACGCTGCTG
Sequence,fitted relative affinity [z-score]
TTAGGTATCGACTATCGGTGAGTGCTA,0.233
TTGCGTCTGGGTGTTTTCTAGTGCTAG,-0.653
TTAGATTTCGGTTCCGGTTAGTGCTAG,7.3
TCAGCTTTCTTTATGCAACTGTGCTAG,1.27
GACGGTTTCCTTTCCATGACGTGCTAG,9.86
GACGGTTTCGTGTTTCGGGACGTGCTA,4.25
CGAGTTTCCATTTTCTGAATGTGCTAG,8.8
CAAGTTTTTATTTTCTGAATGTGCTAG,3.11

# Series 2
# Target: Histone acetyltransferase KAT6A, winged helix 2, GST fusion (KAT6A, Homo sapiens, UniProt Q92794, residues 85-181)
# Method: protein binding microarray
# Molecule type: double-stranded DNA, one strand shown
# Medium: in vitro
# Tested at: not given
# Notes: 8-mer, flanks averaged, mean of 2 arrays, mostly near background
# Baseline: not given
# Reading: higher = stronger binding
# Residues (chain): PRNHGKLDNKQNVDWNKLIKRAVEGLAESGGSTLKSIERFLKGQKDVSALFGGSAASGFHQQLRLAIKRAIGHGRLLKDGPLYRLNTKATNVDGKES
Sequence,E-score
CAGGGTAC,-0.135
CAATATTG,0.0882
ATCATACG,0.027
AATAATGC,0.0685
CAATTTTC,-0.0864
AGTTGACC,0.0684
CGAGAAAG,0.018
ACCTCCAG,0.072

# Series 3
# Target: Replicase polyprotein 1ab, nsp13 helicase (rep, Severe acute respiratory syndrome coronavirus 2, UniProt P0DTD1)
# Mode: inhibitor
# Tested at: 20 µM
Compound,inhibition [%]
CC1(C)CC[C@]2(NC(=O)C(C)(F)F)CC[C@]3(C)[C@H](C(=O)C=C4[C@@]5(C)C=C(C#N)C(=O)C(C)(C)[C@@H]5CC[C@]43C)[C@@H]2C1,27.8
Nc1nc(N)nc(NC2CC2)n1,-6.22
O=C(Nc1c(Cl)cncc1Cl)c1ccc(OC(F)F)c(OCC2CC2)c1,-0.65
CCOCCn1c(N2CCCN(C)CC2)nc2ccccc21,-1.7
COc1ccc(Cl)cc1C(=O)NCCc1ccc(S(=O)(=O)NC(=O)NC2CCCCC2)cc1,6.67
C=C(C)[C@H]1CN[C@H](C(=O)O)[C@H]1CC(=O)O,0.72
N#Cc1ccc(-c2csc(NN=C3CCCC3)n2)cc1,0.34
CC(OC(=O)NCC1(CC(=O)O)CCCCC1)OC(=O)C(C)C (stereo not shown),-4.97
CCCCCCCC/C=C\CCCCCCCC(N)=O,3.24
CNC(=O)c1nn(C)c2c1C(C)(C)Cc1cnc(Nc3ccc(N4CCN(C)CC4)cc3)nc1-2,8.93
O=C(NCCN1CCOCC1)c1ccc(Cl)cc1,9.94
COc1ccc2c(c1)C(=O)N(CCc1ccc(S(=O)(=O)NC(=O)NC3CCCCC3)cc1)C(=O)C2(C)C,4.18
Clc1ccc(C(c2ccc(Cl)cc2)C(Cl)(Cl)Cl)cc1,-0.08
Cn1c(Nc2ccc(C(F)(F)F)cc2)nc2cc(Oc3ccnc(-c4ncc(C(F)(F)F)[nH]4)c3)ccc21,2.14
Cc1cccc(C)c1NC1=NCCCS1,1.82
COc1cc(OC)c2c(=O)[nH]c(-c3cc(C)c(OCCO)c(C)c3)nc2c1,2.77
CSc1ccccc1OCC(O)CNC(C)C (stereo not shown),1.97

# Mixed results
SMILES,target,read-out,mode,quantity,value
COc1ccc2[nH]c([S+]([O-])Cc3ncc(C)c(OC)c3C)nc2c1 (stereo not shown),"Replicase polyprotein 1ab, main protease (rep, Severe acute respiratory syndrome coronavirus 2, UniProt P0DTD1)",enzyme activity,inhibitor,IC50,> 20 µM

# A few entries again (series 3):
Compound,inhibition [%]
CNC(=O)c1nn(C)c2c1C(C)(C)Cc1cnc(Nc3ccc(N4CCN(C)CC4)cc3)nc1-2,8.93
O=C(NCCN1CCOCC1)c1ccc(Cl)cc1,9.94
COc1ccc2c(c1)C(=O)N(CCc1ccc(S(=O)(=O)NC(=O)NC3CCCCC3)cc1)C(=O)C2(C)C,4.18
